Measurements collected from several papers.
Parts stem from different laboratories: compare values within a part only.

Set 1 — method: RNA Bind-n-Seq; form: RNA; medium: in vitro; tested at: 365 nM; relative to: no-protein control; reading: higher = stronger binding
Target: RNA binding protein fox-1 homolog 2, RRM domain, GST-SBP tag (RBFOX2, Homo sapiens, UniProt O43251-10, residues 100-194)
Setting: natural RNA segment, single round, ends assumed
Constant ends, left off below: GGGAGUUCUACAGUCCGACGAUC … UGGAAUUCUCGGGUGCCAA
Construct (chain): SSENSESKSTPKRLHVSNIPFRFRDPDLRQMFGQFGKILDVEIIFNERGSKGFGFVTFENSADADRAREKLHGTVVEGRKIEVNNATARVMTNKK
Under “RBNS enrichment (R)”, `AAAAUUCCAGUAAUUUCGAAGAAUGUGGUGUUGGUGCUUUCCUAAUAAAGAAAUAAUUUAGCUUGACAAAUGCAGCCUCUUUCUUUGAAUUCUAGAGGAUUGAAACCCUU` is recorded as 0.337.
`AGCCUCACCCAUCAAACCAGUGAAUUUCUCAAUCUUGCCUCACAGUGACUGCAGCGCCAAGCGGCAUCCACCAAGCAUCAAGUUGGAGAAAAGGGAACCCAAGCAGUAGA`: “RBNS enrichment (R)” 0.203.
Under “RBNS enrichment (R)”, `GCUAAACAAUCUCCCCUCCCUCACCCUACUUGCACUGCUGUGGGUUUUUUAAAGAGAAACAGAACCAGACUCCUUUCCCGGCCCUCCAAACAUGUAUUCUGUGCGAUAAC` is recorded as 0.779.
`UGCCGGGAGGGGUCGGAUCCUCUAGGCAUCGCCUUCACAGCCCCCUGCCCCCUGCCCUCUGUCCUGGCUCUGCACCUGGUAUAUGGGUCAUGGACCCAGAUGGGGCUUUC` — result for “RBNS enrichment (R)”: 0.751.
`UUCCUAUUAUACUCUGCUUUAUUGAAAAAGUAAAGCAUUUAAAAUUGUGCUCCAGAAAUUCAGAUGUUGUCUUGCGAUCUUUAAACAAUAAAAUGGAUGAUUUCCCCUUA`: “RBNS enrichment (R)” 0.936.
`UAAUGUUGUUUAUAUAGUAUGUAUUAAAUUUUCCUACAUUGUAAAACUGCUGUACUUUUGAUUCUUGUAUAUUAAAAAGUGUUACUGAGCAUUUUUAGAAUUGGGCUAAC`: “RBNS enrichment (R)” 0.55.
`CUCUAUUACGCAAUGUUCCGAAGUUAAAACCCACCAUCCUGCCGCUCAAGAAGACUGACCGGUACGGGACACUCGAGGCUUUGAAUGGGACACCCUAUUCUGCCUUUUUU`: “RBNS enrichment (R)” 0.283.
Under “RBNS enrichment (R)”, `UGAUUUCUUUCAGCGUUAAAAAGAAACAUAGUGUUGCCCUUUUUCUUAAAGCAUCAGUGAAAUUAUGGAAAAUUACUUAAAACGUGAAUACAUCAUCACAGUAGAAUUUA` is recorded as 0.367.
`UAACUACUCCUAAAAAGGUUUUGAUUCAGGCUUUUUUUUGGUUUCAUUUUGUUUUUUUAAGAAAAAGAAAAUGAAAGGAAAAAAAUAAAAGAUCCAGUGUCUUUCUUACA`: “RBNS enrichment (R)” 0.537.
`UUGCUUAGUGUCCAUCUCAUUUCUUGAUCAAAGCCACUUUAGUGAGAAAUAGGUACCAGUCCUCAGGACGAGCCAGGAUCCCUCAGGGGAGAGGGCAGACGAUGCCUGGG` — result for “RBNS enrichment (R)”: 0.249.
`UCCACCAGGCCUGUAACAUCUUGUUGAGAUCAUUUCUAUGGCCCAAUACUUGUCGCUCUGGGGUUUUGUCUUGUUGAGGAGAGGACAGCAGUUUCUGGACCAUGUUAUCA` — result for “RBNS enrichment (R)”: 3.31.
For `UCUCCCUCUCAACCAUCCCACUAAGUUAUAGCCAAGAAGGGAAGGAGACACGGGGAUUUGGGGUUCUCUGCUUGAAUGUCUUCUCCUUUACCACCUCACCUUGUUGGUAC`, “RBNS enrichment (R)” read 1.12.

Set 2 — method: RNA Bind-n-Seq; form: RNA; medium: in vitro; tested at: 200 nM; setting: whole 134-nt RNA, ends assumed; together with: 150 mM LiCl; relative to: input library; reading: higher = stronger binding; each molecule: 7-deaza-guanosine replaces G
Target: Fragile X messenger ribonucleoprotein 1, C-terminal low-complexity region (Fmr1, Mus musculus, UniProt P35922)
Constant ends, left off below: GGGAGUUCUACAGUCCGACGAUC … UGGAAUUCUCGGGUGUCAAGG
For `CUCAAGUCCUGUGCUACACAUCGUAUGUACCGAAUCGGAAAGGAAAGGGAAAGGAAAGUAUUAUGUUACGCCGUUCGGAUCUGCACUUCC`, the log2 enrichment was -0.0825.
With `CACAGACAACACGCACCCACACAGACACAGAGGGAAGGGGUUGGGAUGGGGACAGGGUGCACAGCAGGGCGGGGUUGGACCCCAGCCCCU` the log2 enrichment was 0.9.
The log2 enrichment of `UGGGAGGUGGAUUUUGUUUAUUUUUUUAGCUCAUUUCCAGGGGUGGGAAUUUUUUUUUAAUAUGUGUCAUGAAUAAAGUUGUUUUGGAAA` is reported as 0.0228.
`GUCCUGUGCUACACAUCGUAUGUACCGAAUCGGUUUUUUGGUUUUUUGGUUUUUUGGGGAAAGUAUUAUGUUACGCCGUUCGGAUCUGCA` has a log2 enrichment of -1.52.
For `UGGGAGGUGGAUUUUGUUUAUCUUUUUAGCUCAUUUCCAGGGGUGGGAAUUUUUUUUUAAUAUGUGUCAUGAAUAAAGUUGUUUUUGAAA`, the log2 enrichment was -0.0658.
`CCUGUGCUACACAUCGUAUGUACCGAAUCAAACCCCCAAAUUUUUUUAAAUUUUUUUAAAAAAGUAUUAUGUUACGCCGUUCGGAUCUGC` gave a log2 enrichment of 1.33.
The log2 enrichment of `UGGCCCUGGUGGCAUGCGGGGAGGAAGAGGUGGCCUCAUGGAUCGUGGUGGUCCCGGUGGAAUGUUCAGAGGUGGCCGUGGUUGAGACAG` is reported as -0.938.
With `CCUGUGCUACACAUCGUAUGUACCGAAUCGGGAAAAAAAGGAAAAAAAGGGAAAAAAAGGGAAAGUAUUAUGUUACGCCGUUCGGAUCUG` the log2 enrichment was -0.154.
`UUAAAGAAGAGGGUGUGCGGGACGUCCUUAAGGAUGUACUGCUCCCAUGGUACAAUGCCUAUCGCUUCUUAAUCCAGAACGUUCUGAGGC` gave a log2 enrichment of -2.32.
The log2 enrichment of `AGUCCUGUGCUACACAUCGUAUGUACCGAAUCGGAAAAAAAGGAAAAAGGAAAAAGGAAAGUAUUAUGUUACGCCGUUCGGAUCUGCACU` is reported as -1.99.
With `UGGCCCUGGUGCCAUGCGGGGAGGAAGAGGUGGCCUCAUGGAUCGUGGUGGUCCCGGUGGAAUGUUCAGAGGUGGCCGUGGUGGAGACAG` the log2 enrichment was -0.802.

Set 3 — method: protein-binding microarray; form: double-stranded DNA, one strand shown; medium: in vitro; tested at: 940 nM top; setting: 60-bp whole probe; together with: salmon DNA 0.4 mg/ml; relative to: random background probes; reading: higher = stronger binding; constant ends, left off below: GCCTAGCAC … GTCTTGATTCGCTTGACGCTGCTG
Target: Interferon regulatory factor 5, full length, phosphomimetic (IRF5, Homo sapiens, UniProt Q13568-2, residues 1-514, S451D/S453D/S456D/S462D)
`TTAGGACTGGACTATCGGTCAGTGCTA`: “fitted relative affinity” -0.283 z-score.
For `TTAGGTCTCCTTATGCTTTAGTGCTAG`, “fitted relative affinity” read 0.146 z-score.
For `GACGGACTACTTATCCTGACGTGCTAG`, “fitted relative affinity” read -0.38 z-score.
For `CTCGGTTTCCAAATTGTCTCGTGCTAG`, “fitted relative affinity” read 0.814 z-score.
`TTAGGTTTCGACTTTCGGGTAGTGCTA` — result for “fitted relative affinity”: 9.15 z-score.
Under “fitted relative affinity”, `TAAAATTTTGCTTCTAGAACGTGCTAG` is recorded as -0.138 z-score.
`ACTCAGTAACATTATTGTAGGTGCTAG`: “fitted relative affinity” -0.158 z-score.
`GACGGGATCGGTATCGGGACGTGCTAG`: “fitted relative affinity” 2.11 z-score.
For `GACGGTTTCGGTATTGGGACGTGCTAG`, “fitted relative affinity” read 12 z-score.
`TCAATATTATATCTGTGACTGTGCTAG`: “fitted relative affinity” 0.519 z-score.
For `TTAGGTATCGGTTTCGGTAAGTGCTAG`, “fitted relative affinity” read 13.6 z-score.
For `GACGAATCCAGTTTCGAGACGTGCTAG`, “fitted relative affinity” read 4.57 z-score.
Under “fitted relative affinity”, `TTAGAACTGAGAATCGATTAGTGCTAG` is recorded as 0.133 z-score.
Under “fitted relative affinity”, `GACGGACTCGACACTGGGGACGTGCTA` is recorded as -0.692 z-score.
For `TTAGAACTGAGCTTCGATTAGTGCTAG`, “fitted relative affinity” read -0.551 z-score.
For `TTAGATCACAGACTGGATTAGTGCTAG`, “fitted relative affinity” read -0.584 z-score.
For `CTTGCTTCCCAATTCTCTTTGTGCTAG`, “fitted relative affinity” read 1.38 z-score.
`TTAGGACTGGGGCCTGGGTTAGTGCTA` — result for “fitted relative affinity”: -0.546 z-score.
Under “fitted relative affinity”, `ATTGCTTTCTCTTTCATTGCGTGCTAG` is recorded as 2.45 z-score.
`CAGCTTCTAATATTCATTTTGTGCTAG`: “fitted relative affinity” 0.763 z-score.

Set 4 — method: RNA Bind-n-Seq; form: RNA; medium: in vitro; tested at: not given; relative to: input RNA pool; reading: higher = stronger binding
Target: RING finger protein unkempt homolog, zinc fingers 1-6, GST-SBP tag (UNK, Homo sapiens, UniProt Q9C0B0, residues 30-357)
Chain of UniProt Q9C0B0 (30-357, looked up): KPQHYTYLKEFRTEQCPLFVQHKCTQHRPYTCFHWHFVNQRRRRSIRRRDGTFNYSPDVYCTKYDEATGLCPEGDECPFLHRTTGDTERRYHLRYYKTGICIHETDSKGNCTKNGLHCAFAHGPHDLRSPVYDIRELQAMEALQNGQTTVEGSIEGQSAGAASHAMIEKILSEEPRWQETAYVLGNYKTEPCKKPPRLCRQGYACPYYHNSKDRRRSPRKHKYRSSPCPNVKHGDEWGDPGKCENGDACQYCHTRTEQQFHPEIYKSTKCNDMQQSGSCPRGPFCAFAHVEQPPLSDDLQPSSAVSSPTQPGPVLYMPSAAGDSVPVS
Setting: RNA with constant flanks, human-mouse chimeric sites, ends assumed
Constant ends, left off below: GGGAGUUCUACAGUCCGACGAUC … CAACAGAGGAUUGAGCAUCA
For `GAUGAUAAUCACACAAAUGUGGCACUUUUACAUGACCAGCCUUGGGAUUCUUUUCCUGAUUAAUAUUCUCCCUGGAACCACUGGUCAAGGGGAAUCAAGACGACAAGAACCCGGGGACUU`, the bound/input enrichment was 0.16 ratio.
For `AGAAAGCAAAACUUGGAAAGAUUUAAGAAAGGAGACGUAAGAUUCUUGAUUUGCACAGAUGUAGCUGCUAGAGGGAUUGAUAUCCACGGCGUUCCUUAUGUGAUCAACGUCACCCUGCCU`, the bound/input enrichment was 0.23 ratio.
`CCCCAAUACCAUUUGCAGGUCUGGAACCUGCAUUCUUUUUUUAAAAAACAUGUAUACAUUUUAGGGCUGUAGAUUUAUUUUCCUGGUUUUGUUUUUCAUUGCUGACUUUUGAGCACAGAA` gave a bound/input enrichment of 1.24 ratio.
With `AACUUCGUGCAUCGGUUUCCCUUUGUAGCUGUUUCAAUUGGCUUUGCUGUGAAUAAAGAGAUGGAGUUUGGAAUUGUGUACAGCUGUGUGGAAGGCAAGAUGUACACCGGCAGGAAAGGG` the bound/input enrichment was 0.361 ratio.
`GCGAACAGGACUACAGAAAUGCUGGUAAUUUCAGUCACUUGCUGAUGACUUCUGAUGACCUAGCAAAUGUUGGCAUUGUUGACUGCUGAGAAGAUACUUCUGAGGACCCACGUCUAAGGU` has a bound/input enrichment of 0.108 ratio.
`AGAGAAAUGAGAAAGAAUCUUACACAAGAUGAGAUGCAAAGAAUGUCUACUAGAGUCCUUUUGGCGACUCUUUCCAUUCCUAUUACUCCUGAGCGUACUGAUAUUGCUCGACUUUUGGAU` gave a bound/input enrichment of 0.102 ratio.
For `UUGCUACUGACUCCCUGGGUCAAGUUCCUGUGGGAAUCAUACAGGCAGUGUUUGGACCUUCUUCGAAACAAUUCUAGAGUAGAGCGCCUUUACCAUGAUAUUGCCCAGCAAGCUUUCAAA`, the bound/input enrichment was 0.179 ratio.
`AUAGAUGAAAUUGAUGUGGACCAGGAAGGAAUUGCAGAAAUGAUCCUGGAUGAAAAUGCUAUUGCUCAAGUUCCACGCCCUGGCACAUCUUUGAAGCUCCCUGGCACUAACCAAACAGGA` has a bound/input enrichment of 0.225 ratio.
With `CAGUCCCCGUGUCCCAGUGCAGGACGAUGUGAACAAAAACUCAAAGCGGCCCUUUCUCUGUAGUUGAUGAUUCUCGAAAUGUGCUAUUAUUGUUUGUCUUUUUUUUUUUUUUUUUAAAGA` the bound/input enrichment was 0.931 ratio.
With `GUAGCUGGGACUACAGAAAUGCUGGUAAUUUCAGUCAGUGAGUCGUGACUUCUGAUGUCCCAGCAAAUGUUGGCAUUGUUGACUGCUCUGUGAAGACUUCUGAGGACCCACGUCUAAGGU` the bound/input enrichment was 0.105 ratio.
`UCUUUAAAAAAAAAAUUACCUUUUCUGACAGUGCUUUCCCUCCCAUAGAUCCACGUUCAAGCUCAAAGAGCAAAGGCUCCGCAAACAGCUCAAACAUCUGAUGAAGAUUUUUGAGACAGA` has a bound/input enrichment of 1.32 ratio.

Excerpt of the above (set 1):
`UGCCGGGAGGGGUCGGAUCCUCUAGGCAUCGCCUUCACAGCCCCCUGCCCCCUGCCCUCUGUCCUGGCUCUGCACCUGGUAUAUGGGUCAUGGACCCAGAUGGGGCUUUC` — result for “RBNS enrichment (R)”: 0.751.
`UUCCUAUUAUACUCUGCUUUAUUGAAAAAGUAAAGCAUUUAAAAUUGUGCUCCAGAAAUUCAGAUGUUGUCUUGCGAUCUUUAAACAAUAAAAUGGAUGAUUUCCCCUUA`: “RBNS enrichment (R)” 0.936.
`UAAUGUUGUUUAUAUAGUAUGUAUUAAAUUUUCCUACAUUGUAAAACUGCUGUACUUUUGAUUCUUGUAUAUUAAAAAGUGUUACUGAGCAUUUUUAGAAUUGGGCUAAC`: “RBNS enrichment (R)” 0.55.
`CUCUAUUACGCAAUGUUCCGAAGUUAAAACCCACCAUCCUGCCGCUCAAGAAGACUGACCGGUACGGGACACUCGAGGCUUUGAAUGGGACACCCUAUUCUGCCUUUUUU`: “RBNS enrichment (R)” 0.283.
